Measured values gathered from unrelated publications.
A part holds a random share of what one study measured.
Sequence of UniProt P20794 (whole entry, looked up): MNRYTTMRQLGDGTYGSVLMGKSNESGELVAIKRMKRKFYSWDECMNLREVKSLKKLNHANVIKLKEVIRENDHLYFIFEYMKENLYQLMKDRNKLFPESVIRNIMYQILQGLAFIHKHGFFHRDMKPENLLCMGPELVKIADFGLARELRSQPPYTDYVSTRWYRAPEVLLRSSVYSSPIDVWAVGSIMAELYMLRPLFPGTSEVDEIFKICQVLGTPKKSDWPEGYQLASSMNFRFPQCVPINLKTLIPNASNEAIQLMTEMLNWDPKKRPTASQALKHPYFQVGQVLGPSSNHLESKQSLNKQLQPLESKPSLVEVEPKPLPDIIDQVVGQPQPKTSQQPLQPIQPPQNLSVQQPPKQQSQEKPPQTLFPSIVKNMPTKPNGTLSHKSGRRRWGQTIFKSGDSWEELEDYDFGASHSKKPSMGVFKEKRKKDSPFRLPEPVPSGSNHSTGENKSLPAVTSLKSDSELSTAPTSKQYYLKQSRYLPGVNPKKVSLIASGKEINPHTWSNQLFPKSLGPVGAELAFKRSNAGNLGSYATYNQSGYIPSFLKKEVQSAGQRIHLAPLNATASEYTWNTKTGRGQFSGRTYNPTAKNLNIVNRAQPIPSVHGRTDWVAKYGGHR
Sequence of UniProt P42336 (whole entry, unmodified, looked up): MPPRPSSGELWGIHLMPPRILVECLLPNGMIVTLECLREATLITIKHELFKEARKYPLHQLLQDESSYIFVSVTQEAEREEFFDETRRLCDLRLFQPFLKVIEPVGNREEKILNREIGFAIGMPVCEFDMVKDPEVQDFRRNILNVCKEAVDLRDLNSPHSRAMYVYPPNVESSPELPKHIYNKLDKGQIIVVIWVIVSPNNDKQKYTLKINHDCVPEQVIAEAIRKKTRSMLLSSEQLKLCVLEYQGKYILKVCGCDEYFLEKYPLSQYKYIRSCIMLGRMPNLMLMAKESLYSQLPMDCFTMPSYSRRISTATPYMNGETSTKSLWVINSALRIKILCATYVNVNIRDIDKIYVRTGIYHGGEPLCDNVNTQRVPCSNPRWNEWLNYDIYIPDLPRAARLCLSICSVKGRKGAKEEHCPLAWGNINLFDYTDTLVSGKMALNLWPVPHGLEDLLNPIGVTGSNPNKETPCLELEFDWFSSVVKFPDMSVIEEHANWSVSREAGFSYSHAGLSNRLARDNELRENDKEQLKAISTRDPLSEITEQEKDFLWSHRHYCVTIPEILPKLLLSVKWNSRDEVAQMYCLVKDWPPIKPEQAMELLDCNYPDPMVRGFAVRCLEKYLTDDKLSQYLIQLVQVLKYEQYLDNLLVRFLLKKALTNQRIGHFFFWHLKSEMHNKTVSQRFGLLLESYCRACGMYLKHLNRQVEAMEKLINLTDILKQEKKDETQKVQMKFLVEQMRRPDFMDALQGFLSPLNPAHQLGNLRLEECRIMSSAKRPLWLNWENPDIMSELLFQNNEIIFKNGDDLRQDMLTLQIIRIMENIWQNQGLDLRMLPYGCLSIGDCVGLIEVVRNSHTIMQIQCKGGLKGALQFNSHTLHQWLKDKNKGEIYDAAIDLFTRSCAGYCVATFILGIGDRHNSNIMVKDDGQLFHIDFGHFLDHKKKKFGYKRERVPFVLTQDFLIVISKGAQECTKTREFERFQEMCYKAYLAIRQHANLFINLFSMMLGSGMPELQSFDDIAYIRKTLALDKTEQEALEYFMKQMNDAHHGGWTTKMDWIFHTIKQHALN
Sequence of UniProt Q13976 (whole entry, looked up): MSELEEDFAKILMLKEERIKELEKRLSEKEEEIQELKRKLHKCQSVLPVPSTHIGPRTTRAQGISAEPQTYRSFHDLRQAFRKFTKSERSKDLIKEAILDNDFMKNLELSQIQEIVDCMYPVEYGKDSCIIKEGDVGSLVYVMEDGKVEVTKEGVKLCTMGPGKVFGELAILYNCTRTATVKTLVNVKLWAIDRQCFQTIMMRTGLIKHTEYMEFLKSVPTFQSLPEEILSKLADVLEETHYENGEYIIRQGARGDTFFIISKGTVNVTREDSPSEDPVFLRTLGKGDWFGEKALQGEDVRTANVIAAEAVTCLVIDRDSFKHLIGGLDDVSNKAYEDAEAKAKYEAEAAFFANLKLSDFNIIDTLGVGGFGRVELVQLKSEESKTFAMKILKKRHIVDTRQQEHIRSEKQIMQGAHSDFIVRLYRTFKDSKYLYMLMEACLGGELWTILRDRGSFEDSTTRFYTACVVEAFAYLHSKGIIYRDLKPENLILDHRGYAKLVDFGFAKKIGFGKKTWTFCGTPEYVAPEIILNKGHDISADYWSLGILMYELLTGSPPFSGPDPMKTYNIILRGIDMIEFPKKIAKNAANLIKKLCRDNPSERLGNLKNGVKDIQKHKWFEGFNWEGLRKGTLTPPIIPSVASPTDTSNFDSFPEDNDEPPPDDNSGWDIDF
Sequence of UniProt P36894 (whole entry, looked up): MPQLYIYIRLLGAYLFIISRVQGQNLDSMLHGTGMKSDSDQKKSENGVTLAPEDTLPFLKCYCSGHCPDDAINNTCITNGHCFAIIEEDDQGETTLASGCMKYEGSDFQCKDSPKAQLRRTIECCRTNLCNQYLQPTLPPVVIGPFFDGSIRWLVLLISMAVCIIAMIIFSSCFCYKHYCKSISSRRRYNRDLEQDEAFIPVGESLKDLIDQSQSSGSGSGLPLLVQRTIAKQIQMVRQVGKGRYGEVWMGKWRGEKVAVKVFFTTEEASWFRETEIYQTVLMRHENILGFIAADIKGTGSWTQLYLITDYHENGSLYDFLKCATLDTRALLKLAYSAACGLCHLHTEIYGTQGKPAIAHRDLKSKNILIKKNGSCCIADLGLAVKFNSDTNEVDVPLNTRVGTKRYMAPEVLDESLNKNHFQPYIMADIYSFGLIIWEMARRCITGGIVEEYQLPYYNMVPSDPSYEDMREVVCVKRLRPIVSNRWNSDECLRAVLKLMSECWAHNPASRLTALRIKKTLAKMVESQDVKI
Sequence of UniProt Q96Q40 (whole entry, looked up): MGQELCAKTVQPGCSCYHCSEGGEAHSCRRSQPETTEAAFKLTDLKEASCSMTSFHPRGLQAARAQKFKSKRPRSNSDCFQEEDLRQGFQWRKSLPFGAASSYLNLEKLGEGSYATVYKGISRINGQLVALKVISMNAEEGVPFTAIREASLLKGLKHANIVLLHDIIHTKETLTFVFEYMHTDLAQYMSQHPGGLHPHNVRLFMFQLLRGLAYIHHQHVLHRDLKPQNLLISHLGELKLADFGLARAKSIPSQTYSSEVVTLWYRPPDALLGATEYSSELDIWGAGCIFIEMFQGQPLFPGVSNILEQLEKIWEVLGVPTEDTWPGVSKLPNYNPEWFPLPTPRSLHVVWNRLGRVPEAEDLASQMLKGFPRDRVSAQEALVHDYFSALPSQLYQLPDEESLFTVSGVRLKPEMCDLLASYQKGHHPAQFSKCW
Sequence of UniProt P62344 (whole entry, looked up): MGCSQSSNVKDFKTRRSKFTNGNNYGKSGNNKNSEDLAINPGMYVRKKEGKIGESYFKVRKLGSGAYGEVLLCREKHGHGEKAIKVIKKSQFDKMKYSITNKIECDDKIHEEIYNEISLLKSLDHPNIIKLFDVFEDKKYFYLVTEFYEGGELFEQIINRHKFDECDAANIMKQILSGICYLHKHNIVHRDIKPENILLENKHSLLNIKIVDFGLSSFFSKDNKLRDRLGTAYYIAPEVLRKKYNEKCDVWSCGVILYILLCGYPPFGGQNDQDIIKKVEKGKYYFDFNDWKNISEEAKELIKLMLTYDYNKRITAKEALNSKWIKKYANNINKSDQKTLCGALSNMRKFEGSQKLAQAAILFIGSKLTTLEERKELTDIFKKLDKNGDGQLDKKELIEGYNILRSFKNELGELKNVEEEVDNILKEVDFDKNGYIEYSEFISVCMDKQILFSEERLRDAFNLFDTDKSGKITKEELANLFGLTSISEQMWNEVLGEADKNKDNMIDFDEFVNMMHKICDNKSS
Sequence of UniProt Q6PHR2 (whole entry, looked up): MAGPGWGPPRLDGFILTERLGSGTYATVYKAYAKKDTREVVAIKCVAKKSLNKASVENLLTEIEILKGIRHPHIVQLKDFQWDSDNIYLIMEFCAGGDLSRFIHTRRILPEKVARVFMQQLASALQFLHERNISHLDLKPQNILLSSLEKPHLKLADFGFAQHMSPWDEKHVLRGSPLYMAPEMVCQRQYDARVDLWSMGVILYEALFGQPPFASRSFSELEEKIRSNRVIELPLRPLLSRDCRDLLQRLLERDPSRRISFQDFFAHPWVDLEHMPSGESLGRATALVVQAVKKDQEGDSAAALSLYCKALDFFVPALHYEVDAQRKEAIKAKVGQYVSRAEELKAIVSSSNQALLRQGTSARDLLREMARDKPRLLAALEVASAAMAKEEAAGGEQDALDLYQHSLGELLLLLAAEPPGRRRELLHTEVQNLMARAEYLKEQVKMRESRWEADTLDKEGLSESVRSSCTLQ
Sequence of UniProt Q96GD4 (whole entry, looked up): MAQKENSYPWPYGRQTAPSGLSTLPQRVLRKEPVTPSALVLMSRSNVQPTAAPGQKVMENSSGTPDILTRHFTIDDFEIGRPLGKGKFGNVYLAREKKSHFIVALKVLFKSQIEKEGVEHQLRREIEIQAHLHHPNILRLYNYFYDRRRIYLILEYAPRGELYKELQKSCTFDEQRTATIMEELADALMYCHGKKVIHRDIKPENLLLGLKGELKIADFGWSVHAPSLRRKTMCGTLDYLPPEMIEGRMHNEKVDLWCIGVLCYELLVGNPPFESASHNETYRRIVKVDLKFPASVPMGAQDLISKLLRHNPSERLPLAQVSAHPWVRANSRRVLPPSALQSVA

Series 1
Species: human
Sample: microsomes or S9
Tested at: 2 µM
Time: 0.5 h
SMILES | remaining compound [%]
CN(C(=O)CN1CC[C@@H]2OCc3cnnn3[C@H]2C1)c1ccccc1 | > 100
CC1CCNC2CN(c3nc4c(cc3F)c(=O)c(C(=O)O)cn4-c3ncc(F)cc3F)CC12 (stereo not drawn) | 99.1
CCn1cc(S(=O)(=O)N2CCc3n[nH]c(=O)n3CC2)cn1 | 49.3
COc1ccc(-c2cc(C(=O)N3CCc4ccccc4C3)n[nH]2)cc1S(=O)(=O)N(C)C | 10.3
Cc1[nH]c(=O)[nH]c(=O)c1S(=O)(=O)NCC(Cc1ccccc1F)c1ccccc1 (stereo not drawn) | > 100
CC(=O)N1CCOc2cc(S(=O)(=O)N3CSC[C@@H]3C(=O)NCc3csc(C)n3)c(C)cc21 | 2.29
O=C(NC1CCN(Cc2ccc(Cl)c(Cl)c2)CC1)c1cc2ccc3ccccc3c2o1 | > 99
CC(C)(C)c1cc(SCC(=O)O)cc(C(C)(C)C)c1O | > 99
Cc1cc(C)cc(C(=O)c2c(C(C)C)c(=O)[nH]c(=O)n2Cc2ccnc(N)c2)c1 | 15.2
COC(=O)C1(NC(=O)c2ccc(CN3CC(C)OC(C)C3)cc2)CCS(=O)(=O)CC1 (stereo not drawn) | > 100
Cc1nn(C)cc1-c1c2c(=O)[nH]n(C(C)C)c2nc2[nH]c(=O)n(C)c12 | > 100
CNC(=O)c1cc(Cl)cc(C)c1NC(=O)c1cc(Br)nn1-c1c(F)c(F)cc(F)c1F | 83

Series 2
Structure (SMILES): CC#CC(=O)N1CCC[C@H]1c1nc(-c2ccc(C(=O)Nc3ccccn3)cc2)c2c(N)nccn12
Effect on: enzyme activity
Mode: inhibitor
Tested at: 1 µM
target | inhibition [%]
Serine/threonine-protein kinase PAK 5 (PAK5, Homo sapiens, UniProt Q9P286) | 8
Serine/threonine-protein kinase LATS2 (LATS2, Homo sapiens, UniProt Q9NRM7) | 0
Aurora kinase B (AURKB, Homo sapiens, UniProt Q96GD4) | 9
Receptor-interacting serine/threonine-protein kinase 1 (RIPK1, Homo sapiens, UniProt Q13546) | 18
Serine/threonine-protein kinase Nek9 (NEK9, Homo sapiens, UniProt Q8TD19) | 0
Tyrosine-protein kinase JAK2, JH1 (JAK2, Homo sapiens, UniProt O60674) | 5
Mitogen-activated protein kinase 6 (MAPK6, Homo sapiens, UniProt Q16659) | 2
Death-associated protein kinase 3 (DAPK3, Homo sapiens, UniProt O43293) | 13
cGMP-dependent protein kinase 1 (PRKG1, Homo sapiens, UniProt Q13976) | 1
Ephrin type-B receptor 4 (EPHB4, Homo sapiens, UniProt P54760) | 9
Serine/threonine-protein kinase MAK (MAK, Homo sapiens, UniProt P20794) | 0
Serine/threonine-protein kinase SIK3 (SIK3, Homo sapiens, UniProt Q9Y2K2) | 2

Series 3
SMILES: C[C@H](c1cccc(C#N)c1)n1cc(Cl)cc(C(N)=O)c1=N
Effect on: cell-free assay
Technique: competition with immobilised ligand
Tested at: 1 µM
target | remaining binding
Serine/threonine-protein kinase MAK (MAK, Homo sapiens, UniProt P20794) | 100%
Serine/threonine-protein kinase Nek2 (NEK2, Homo sapiens, UniProt P51955) | 100%
Serine/threonine-protein kinase DCLK2 (DCLK2, Homo sapiens, UniProt Q8N568) | 88%
Macrophage colony-stimulating factor 1 receptor, autoinhibited (CSF1R, Homo sapiens, UniProt P07333) | 100%
Myosin-IIIb (MYO3B, Homo sapiens, UniProt Q8WXR4) | 92%
Serine/threonine-protein kinase/endoribonuclease IRE1 (ERN1, Homo sapiens, UniProt O75460) | 69%
Casein kinase I isoform alpha-like (CSNK1A1L, Homo sapiens, UniProt Q8N752) | 92%
Serine/threonine-protein kinase Sgk1 (SGK1, Homo sapiens, UniProt O00141) | 77%
Interleukin-1 receptor-associated kinase 3 (IRAK3, Homo sapiens, UniProt Q9Y616) | 99%
Dual specificity protein kinase CLK2 (CLK2, Homo sapiens, UniProt P49760) | 100%
Bone morphogenetic protein receptor type-1A (BMPR1A, Homo sapiens, UniProt P36894) | 100%
Cyclin-dependent kinase 15 (CDK15, Homo sapiens, UniProt Q96Q40) | 84%
Serine/threonine-protein kinase 38 (STK38, Homo sapiens, UniProt Q15208) | 87%
Epidermal growth factor receptor (EGFR, Homo sapiens, UniProt P00533, del747-750/T751S) | 100%
Phosphatidylinositol 4,5-bisphosphate 3-kinase catalytic subunit alpha isoform (PIK3CA, Homo sapiens, UniProt P42336) | 92%
Inhibitor of nuclear factor kappa-B kinase subunit beta (IKBKB, Homo sapiens, UniProt O14920) | 100%

Series 4
Structure (SMILES): COc1ccc2[nH]c3c4[nH]c5ccc(OC)cc5c4c4c(c3c2c1)C(=O)NC4=O
Tested at: 1 µM
CDK4: Cyclin-dependent kinase 4 (CDK4, Homo sapiens, UniProt P11802)
Sequence of UniProt P11802 (whole entry, looked up): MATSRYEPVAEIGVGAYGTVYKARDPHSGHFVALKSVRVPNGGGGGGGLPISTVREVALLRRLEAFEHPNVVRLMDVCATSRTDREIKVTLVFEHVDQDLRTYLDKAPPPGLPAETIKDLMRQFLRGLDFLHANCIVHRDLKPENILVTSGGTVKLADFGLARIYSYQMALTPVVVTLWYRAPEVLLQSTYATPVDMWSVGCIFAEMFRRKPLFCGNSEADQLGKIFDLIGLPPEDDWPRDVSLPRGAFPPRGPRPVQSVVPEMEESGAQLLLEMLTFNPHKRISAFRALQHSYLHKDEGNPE
target | technique | measured | notes | with | reference | remaining binding [%]
cGMP-dependent protein kinase 1 (PRKG1, Homo sapiens, UniProt Q13976) | competitive binding panel |  |  |  | vehicle | 74
Serine/threonine-protein kinase ICK (CILK1, Homo sapiens, UniProt Q9UPZ9) | competitive binding scan |  |  |  |  | 89
Cyclin-dependent kinase 11A (CDK11A, Homo sapiens, UniProt Q9UQ88) | competitive binding panel | CDC2L2 |  |  | vehicle | 91
Phosphatidylinositol 4,5-bisphosphate 3-kinase catalytic subunit alpha isoform (PIK3CA, Homo sapiens, UniProt P42336, I800L) | competitive binding panel |  |  |  | vehicle | 93
CDK4 | competitive binding scan |  |  | cyclin D1 |  | 82
Calcium-dependent protein kinase 1 (CDPK1, Plasmodium falciparum, UniProt P62344) | competitive binding, scanMAX |  | Plasmodium falciparum CDPK1, 1000 nM |  |  | 29
Insulin receptor-related protein (INSRR, Homo sapiens, UniProt P14616) | competitive binding panel |  |  |  | vehicle | 95
Serine/threonine-protein kinase ULK3 (ULK3, Homo sapiens, UniProt Q6PHR2) | competitive binding panel |  |  |  | vehicle | 43
Serine/threonine-protein kinase PLK2 (PLK2, Homo sapiens, UniProt Q9NYY3) | competitive binding panel |  |  |  | vehicle | 95
CDK4 | competitive binding scan |  |  | cyclin D3 |  | 74
Tyrosine-protein kinase JAK1 (JAK1, Homo sapiens, UniProt P23458) | competitive binding panel |  | JH1 catalytic domain |  | vehicle | 100
